Assay results of several laboratories.
Parts stem from different laboratories: compare values within a part only.

Study 1 — technique: RNA Bind-n-Seq; molecule type: RNA; matrix: in vitro; concentration: 365 nM; relative to: no-protein control; reading: higher = stronger binding
Target: RNA binding protein fox-1 homolog 2, RRM domain, GST-SBP tag (RBFOX2, Homo sapiens, UniProt O43251-10, residues 100-194)
Notes: natural RNA segment, single round, ends assumed
All sequences stand within: GGGAGUUCUACAGUCCGACGAUC … UGGAAUUCUCGGGUGCCAA
Residues (chain): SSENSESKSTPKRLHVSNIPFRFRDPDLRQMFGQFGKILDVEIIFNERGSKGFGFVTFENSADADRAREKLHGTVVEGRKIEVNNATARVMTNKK
Strand | RBNS enrichment (R)
AUUAUUGCUUAUUUGAAAACAGUAUUCCCAACUUUUGUAAAGUUGUGUAUGUUUUUGCUUCCCAUGUAACUUCUCCAGUGUUCUGGCAUGAAUUAGAUUUUACUGCUUGU | 0.796
UUCUCAAGGUCACAGGCCCCAGUCCCAGCCUGGGGGCUGGCAGAGGCCCCCAUAUACUCUGCUACAGCUCCUAUCAUGAAAAAUAAAAUGUUUGUCUUUGCAAAACAGUA | 0.488
CUUUCUCAACAAAUUAGUCCAUCUCAUUGAUGUACCACAGAAAUCCAAAGCUUUGCUGUCAUCACAUAAAUGAAUUAAAUCACAUGUGAAAGGGAACACACCCAAUUUUA | 0.25
GAUUUCCUCUACCUUUUUGCUCUUAAAACUGCUUCUCUGCUCUGAGAAGCACAGCUACCUGCCUUCACUGAAAUAUACCUCAGGCUGAAAUUUGGGGUGGGAUAGCAGGU | 0.321
UUGGGUACUUUAUACAAAGAAAAUUCAGCCCUACCCUGCAUAAUUUGAAGACACAGCAGAAAGGGGGCUUAGGGAUGAGGUCCUGGUUUUUCUUGUAUAAAUAGGAGUCA | 0.516
AUGCUGACUGACAGGCAGAUCCUGAUAUAUCCAAAUUCGAAUUAAUACCAUUUGAAAUGGCAAGUCUUGGCUUAACGCCUGUUUGUAUGCCCAGCAUUCAGCUGUUUUAC | 0.448
ACACUCGUCUUGCCUAGGAAGUGCAAUCUCCUUGUGACUGGAGCACACUGGCAGCCUUCAGGUGUCAUAAUCAUACAUCCCAGAGAAGAGCAGUCACCUGCUGUCACUAG | 0.398
UCCAGCCAGACUUCAGGAUCUGUUGCAGGAGUUGGACUCACUGUGGGAAAAGCAGCGUUCCCUCUCCUUAAGCCACAGGCAGAUUGUGUAAAACAGGAACAGCAGCGGCU | 0.296

Study 2 — technique: protein binding microarray; molecule type: double-stranded DNA, one strand shown; matrix: in vitro; concentration: not given; relative to: not given; reading: higher = stronger binding
Target: Histone acetyltransferase KAT6A, both winged helices, GST fusion (KAT6A, Homo sapiens, UniProt Q92794, residues 1-181)
Notes: 8-mer, flanks averaged, mean of 2 arrays, mostly near background
Target sequence (chain): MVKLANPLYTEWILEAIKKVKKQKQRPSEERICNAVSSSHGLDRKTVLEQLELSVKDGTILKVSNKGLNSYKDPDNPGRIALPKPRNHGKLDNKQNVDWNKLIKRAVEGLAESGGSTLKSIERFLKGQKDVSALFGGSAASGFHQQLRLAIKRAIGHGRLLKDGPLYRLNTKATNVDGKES
Strand | E-score
CTTACGAA | -0.174
GTTAGGTA | -0.0382
ACATCTAG | -0.129
CAAGCCAA | 0.00967
GACAACAC | 0.0281
CCCTCTTA | -0.15
AACCGACC | 0.107
ACATTCAG | -0.027
TGCTCTAA | -0.0629
TTAGGCAA | -0.217
CGTCGTAA | -0.0299
GATGCACA | -0.025
AGATGAAC | -0.041

Study 3 — technique: RNA Bind-n-Seq; molecule type: RNA; matrix: in vitro; concentration: 200 nM; notes: whole 134-nt RNA, ends assumed; together with: 150 mM LiCl; relative to: input library; reading: higher = stronger binding; library: 7-deaza-guanosine replaces G
Target: Fragile X messenger ribonucleoprotein 1, C-terminal low-complexity region (Fmr1, Mus musculus, UniProt P35922)
All sequences stand within: GGGAGUUCUACAGUCCGACGAUC … UGGAAUUCUCGGGUGUCAAGG
Strand | log2 enrichment
UAACUUUAGAGGAGGAUCUGAUGGAUAUGGCACUGGACGUGGAUUUGGGGAUGGCUAUAAUGGGUAUGGAGGAGGACCUGGAGGUGGCAA | 0.445
UUUGUAGAGCAGCCCGACGGCCAUGGAGGCUGAAGAGACGAUGGAAUGCCUUCAGGAGUUCCCUGAACAUCAUAAAAUGAUCCUCGACCG | -2.09
UCCUCAAGUCCUGUGCUACACAUCGUAUGUACCGAAUCGGGCGGCGGGCGGGAAAGUAUUAUGUUACGCCGUUCGGAUCUGCACUUCCAG | 0.751
UCAAGUCCUGUGCUACACAUCGUAUGUACCGAAUCGGGGUUGGGUUGGUUGGGGAAAGUAUUAUGUUACGCCGUUCGGAUCUGCACUUCC | -0.368
UAACUUUAGAGGAGGAUCUGAUGGAUAUGGCAGUGGACGUGGAUUUGGGGAUGGCUAUAAUGGGUAUGGAGGAGGACCUGUAGGUGGCAA | 0.242
AAGUCCUGUGCUACACAUCGUAUGUACCGAAUCGGUGGUUUUUUUGGUUUUUUUGGAAAGUAUUAUGUUACGCCGUUCGGAUCUGCACUU | -1.46
AGUCCUGUGCUACACAUCGUAUGUACCGAAUCGGGGAAAAAGGGGUGGGGUUUGGGGAAAGUAUUAUGUUACGCCGUUCGGAUCUGCACU | -1.09
GUCCUGUGCUACACAUCGUAUGUACCGAAUCGGGGAAAAAGGGGUGGGGAAAAAGGGGAAAGUAUUAUGUUACGCCGUUCGGAUCUGCAC | -0.0509
ACCAUGCAGGUGGGCAUCUUUGGGAAGUGGGGCAAGGGGGGGAUAGGGAGGGGGGUAAAAAUUUGGGAACAGGUGGUCCCAGGUCGUUUC | 1.61
UCAAGUCCUGUGCUACACAUCGUAUGUACCGAAUCGGUUUUUGGAGGUUUUUGGAAAGUAUUAUGUUACGCCGUUCGGAUCUGCACUUCC | -0.749
GUCCUGUGCUACACAUCGUAUGUACCGAAUCGGGUUUUUUUGGGAAAGGGUUUUUGGGAAAGUAUUAUGUUACGCCGUUCGGAUCUGCAC | -2.32

Single results of other studies
Substance | target | assay | system | conditions | scale | endpoint | result
PhoQ, residues 284 288 289 292 302 303 AEGLLW | PhoP, residues 12 14 15 18 19 VQALL (Escherichia coli, UniProt P23836) | Sort-seq, measured: YFP reporter | E. coli | PhoQ-PhoP variant library, together with: 10 µM Mg2+ | relative to: high Mg2+ state, higher = stronger signaling | fold induction | 2.47

Repeated from above (study 2):
Strand | E-score
GTTAGGTA | -0.0382
ACATCTAG | -0.129
CAAGCCAA | 0.00967
GACAACAC | 0.0281
CCCTCTTA | -0.15
